Results pooled from the literature.
A part holds a random share of what one study measured.

Series 1 — method: RNA Bind-n-Seq; molecule type: RNA; medium: in vitro; tested at: not given; relative to: input RNA pool; reading: higher = stronger binding
Target: RING finger protein unkempt homolog, zinc fingers 1-6, GST-SBP tag (UNK, Homo sapiens, UniProt Q9C0B0, residues 30-357)
Chain of UniProt Q9C0B0 (30-357, looked up): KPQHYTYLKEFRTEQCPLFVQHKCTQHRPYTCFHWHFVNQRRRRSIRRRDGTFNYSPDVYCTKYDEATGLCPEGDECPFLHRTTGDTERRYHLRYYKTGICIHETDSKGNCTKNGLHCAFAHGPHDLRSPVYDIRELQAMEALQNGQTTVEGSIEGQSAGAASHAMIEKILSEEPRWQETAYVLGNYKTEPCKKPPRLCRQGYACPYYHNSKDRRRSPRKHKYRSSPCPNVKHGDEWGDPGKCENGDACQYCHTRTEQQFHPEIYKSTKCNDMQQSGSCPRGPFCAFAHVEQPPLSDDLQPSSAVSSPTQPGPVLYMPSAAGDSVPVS
Notes: RNA with constant flanks, human-mouse chimeric sites, ends assumed
All sequences stand within: GGGAGUUCUACAGUCCGACGAUC … CAACAGAGGAUUGAGCAUCA
Sequence	bound/input enrichment [ratio]
UCUUUAAAAAAAAAAUUACCUUUUCUGCAUAUUAUAGCCCUCCCAUAGAUCCACGUUCAAGCUCAAAGAGCAAAGGCUUUGCACGGAGCUCAAACAUAAAAGAAAGAAAGAUUUCUGAGA	3.44
CUGUGUGUGCUGAAUAAAUGGCUUGUAAAGAAGUUUUUCCAAGCUGUAACCCAUGCUGUUAUUAUAGUUGCUGCAAAAUGUUCUUCCUGAUAUUGAUGUUUGUUUACAACUGAAGGUCUC	0.206
AAUGUUCUUAAUAUUUUUGAAUAAAUGAAGCUAAAAUGUCUGCUUUUGGUACAACACGCAUUAAUAAAAGGUUAAGUUUUGUUUUCCCUCCACUGAAUAUUUAACAUCUCAGAAAAAAAC	0.316
CACAGAGCAGCACCUACCCCCUCCUCCUUUCCACACCUGCAAACCCUUUUACUUGGGCUGAAUAUUUAGUGUAAUUACAUCUCAGCUUUGAGGGCUCCUGUGGCAAAAUACCCGGAUAAA	0.949
GAGCCCAGUCGGCAGUUUGUAAAGGACUCAAUUCGGCUGGUUAAAAGAUGCACCAAACCCGACAGAAAAGAAUUCCAGAAGAUUGCCAUGGCUACAGCUAUAGGAUUUGCUAUAAUGGGA	0.396
AAAGUGAUGACUAUGUUUGUCCAACGACAGGUAUUUUCUGAGAACAAGGAUGAGAUUGCGUUAGUCCUCUAUGGCACAGAUGGCACUGAUAAUGCCCUUGCUGGCAAGGACCAGUAUCAG	0.127
UCUUAACGUCCAUUUAAAACUUAUUUUUAUAGCUAGAUAAAUAUUGUUAGUCUUAGUCAAUAGCUCACAUUUUUUGAGAAGCAUGCCCUCCCUGUCCAUUUGUCUUAUAACAUGACCCAG	166
AGUGUGCAGGAAUUCAUGACCUUUACAAGUCAACUGAUUGUGGAACGCUCAUCGAAAGGCAGCAGAGCUUCUGUCAAAGAACAAGAGUAUCUUUGCCAUGUCUACGUCCGGAGCGACAGU	0.0874
UUGGAAGGACCAGAGCCUAAUCAACUGAAACCAUUAGUUAUACAGGCUAUGCCCACCCUAAUAGAACUAAUGAAAGACCCCAGUGUAGUUGUUCGAGACACAACAGCAUGGACUGUAGGC	0.874

Series 2 — method: RNA Bind-n-Seq; molecule type: RNA; medium: in vitro; tested at: 1 µM; notes: whole 134-nt RNA, ends assumed; together with: 150 mM KCl; relative to: input library; reading: higher = stronger binding
Target: Ras GTPase-activating protein-binding protein 1, RRM domain (G3BP1, Homo sapiens, UniProt Q13283)
Chain of UniProt Q13283 (whole entry, looked up): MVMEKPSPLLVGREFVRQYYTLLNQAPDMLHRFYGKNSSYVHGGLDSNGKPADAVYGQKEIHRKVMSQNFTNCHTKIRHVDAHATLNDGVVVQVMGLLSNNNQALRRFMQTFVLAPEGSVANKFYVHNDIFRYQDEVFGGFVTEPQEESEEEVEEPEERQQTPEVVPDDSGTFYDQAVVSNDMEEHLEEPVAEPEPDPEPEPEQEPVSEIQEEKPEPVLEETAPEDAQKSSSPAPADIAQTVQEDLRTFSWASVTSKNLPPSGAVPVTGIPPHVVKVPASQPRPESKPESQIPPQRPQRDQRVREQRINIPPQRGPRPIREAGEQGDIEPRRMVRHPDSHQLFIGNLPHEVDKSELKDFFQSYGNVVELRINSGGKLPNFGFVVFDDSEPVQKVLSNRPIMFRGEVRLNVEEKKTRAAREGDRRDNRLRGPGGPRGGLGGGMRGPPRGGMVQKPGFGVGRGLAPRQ
All sequences stand within: GGGAGUUCUACAGUCCGACGAUC … UGGAAUUCUCGGGUGUCAAGG
Sequence	log2 enrichment
CCUCAAGUCCUGUGCUACACAUCGUAUGUACCGAAUCGGGCGGGGCGGGCGGAAAGUAUUAUGUUACGCCGUUCGGAUCUGCACUUCCAG	0.0677
UUCAGUAAAAUGGCAGAAGAGAAACUGACCCACAAAAUGGAAGCUAAUAAAGAGAACCGAGAGGCACAAAUGGCUGCCAAACUGGAACGU	-0.0858
CCUCAAGUCCUGUGCUACACAUCGUAUGUACCGAAUCGGGCGGGCGGGCGGGAAAGUAUUAUGUUACGCCGUUCGGAUCUGCACUUCCAG	0.897
CCUGUGCUACACAUCGUAUGUACCGAAUCGGGGAAAAAGGGGAAAAAGGGGAAAAAGGGGAAAGUAUUAUGUUACGCCGUUCGGAUCUGC	0.674
GUCCUGUGCUACACAUCGUAUGUACCGAAUCGGGUUUUUGGGUUUUUGGUUUUUGGGGAAAGUAUUAUGUUACGCCGUUCGGAUCUGCAC	-0.121
UGGCCCUGGUGGCAUGCGGGGAGGAAGAGGUGGCCUCAUGGAUGGUGGUGGUCCCGGUGGAAUGUUCAGAGGUGGCCGUGGUGGAGACAG	1.12

Series 3 — method: universal PBM; molecule type: double-stranded DNA, one strand shown; medium: in vitro; tested at: not given; reading: higher = stronger binding
Target: Sal-like protein 4, full length isoform B (SALL4, Homo sapiens, UniProt Q9UJQ4-2, residues 1-616)
Notes: 8-mer, flanks averaged, mean of replicates
Sequence	E-score
ATAGGGCC	-0.207
TCTCGAGA	-0.0573
ATTTGTAG	0.267
GGCAGCAA	-0.161
AGCCTCAT	-0.00589
ATAAGCTA	0.256
AAGGTCTC	0.0153
CGTCAGGC	-0.19
TGCAGGCA	-0.0529
CGAAAATA	0.248
AGCTCGTG	-0.164

Other studies, line by line
Substance	target	test	system	setting	how to read	measurement	result
PhoQ, residues 284 288 289 292 302 303 QWGLFV	PhoP, residues 12 14 15 18 19 GQALL (Escherichia coli, UniProt P23836)	Sort-seq, measured: YFP reporter	E. coli	PhoQ-PhoP variant library, together with: 10 µM Mg2+	relative to: high Mg2+ state, higher = stronger signaling	fold induction	3.96
